Experimental data of several laboratories.
± gives the spread as reported.
RMS3: RMS3 (Lathyrus oleraceus, UniProt A0A109QYD3)
gdpP residues 84-659: gdpP, residues 84-659 (Bacillus subtilis, UniProt P37484)

SMILES	target	assay	test system	conditions	scale	quantity	result
COCCCN1CCc2c(Cc3ccc(Cl)cc3)[nH]c3c(OC(F)F)ccc(c23)C1=O	Dual 3',5'-cyclic-AMP and -GMP phosphodiesterase 11A (PDE11A, Homo sapiens, UniProt Q9HCR9)	enzyme activity			relative to: IC50 PDE5A1 over PDE11A	selectivity ratio	100
CC(C)[C@H](NC(=O)COCC(=O)NCCCOCCOCCOCCCNC(=O)CCCC[C@@H]1SC[C@@H]2NC(=O)N[C@@H]21)C(=O)NC(c1ccc(C(=N)N)cc1)P(=O)(Oc1ccccc1)Oc1ccccc1 (stereo partly drawn)	Suppressor of tumorigenicity 14 protein (ST14, Homo sapiens, UniProt Q9Y5Y6)	enzyme activity, inhibitor				kinact/KI	60 M⁻¹ s⁻¹
CC1=CC(Oc2c(F)cc3c(C)cc(=O)oc3c2F)OC1=O (racemic)	RMS3	enzyme activity, substrate, pre-steady-state kinetics				kcat	0.0009 ± 0.00025 s⁻¹
Nc1ncnc2c1ncn2[C@@H]1O[C@H](COP(=O)(O)OP(=O)(O)OC[C@H]2O[C@@H](O)[C@H](O)[C@@H]2O)[C@@H](O)[C@H]1O	Protein mono-ADP-ribosyltransferase PARP14, macrodomain 2 (PARP14, Homo sapiens, UniProt Q460N5)	binding				ΔG	-7.27 kcal/mol
CC(C)C[C@@H](NC(=O)[C@@H](CCCCN)NC(=O)[C@@H](C)NC(=O)[C@@H](CCCNC(=N)N)NC(=O)[C@@H](Cc1c[nH]cn1)NC(=O)[C@H](NC(=O)[C@@H](CO)NC(=O)[C@H](NC(=O)[C@@H](Cc1c[nH]c2ccccc12)NC(=O)[C@H](N)Cc1ccc(O)cc1)C(C)C)[C@H](C)O)C(=O)N1CCC[C@@H]1C(=O)N[C@H](CC(=O)O)C(N)=O	Microtubule-associated protein tau, repeat domain (MAPT, Homo sapiens, UniProt P10636, del597-597)	dynamic light scattering		100 µM, 24 h, 10 µM tau, together with: 2.5 µM heparin		aggregate diameter	3000 to 4000 nm
C[n+]1ccc(C(=O)NC2CCC3(O)C4Cc5ccc(O)c6c5C3(CC[N+]4(C)CC3CC3)C2O6)cc1 (stereo not drawn)	Kappa-type opioid receptor (Oprk1, Mus musculus, UniProt P33534)	G protein activation, agonist			relative to: 3 µM U50488H	Emax	37.7 ± 1.58%
CN(C)c1ncnc2c1ncn2[C@@H]1O[C@@H]2COP(=O)(O)O[C@H]3[C@@H](O)[C@H](n4cnc5c(N(C)C)ncnc54)O[C@@H]3COP(=O)(O)O[C@H]2[C@H]1O	gdpP residues 84-659	HPLC		concentration not given	relative to: c-di-AMP, higher = slower hydrolysis	hydrolysis rate fold decrease	≥ 4100
CC(C)C[C@H](NC(=O)CNC(=O)[C@H](CCC(N)=O)NC(=O)CNC(=O)CNC(=O)CNC(=O)CNC(=O)CNC(=O)CNC(=O)CNC(=O)CNC(=O)CNC(=O)CNC(=O)[C@H](CO)NC(=O)[C@H](C)NC(=O)[C@H](CC(C)C)NC(=O)[C@H](CC(=O)O)NC(=O)[C@H](CC(C)C)NC(=O)[C@H](C)NC(=O)[C@H](CC(=O)O)NC(=O)[C@H](C)NC(=O)[C@H](CC(C)C)NC(=O)CNC(=O)[C@H](CCC(N)=O)NC(=O)COCCNC(=S)Nc1ccc2c(c1)C(=O)OC21c2ccc(O)cc2Oc2cc(O)ccc21)C(=O)N[C@@H](C)C(=O)N[C@@H](CC(=O)O)C(=O)N[C@@H](C)C(=O)N[C@@H](CC(C)C)C(=O)N[C@@H](CC(=O)O)C(=O)N[C@@H](CC(C)C)C(=O)N[C@@H](C)C(=O)N[C@@H](CO)C(N)=O	14-3-3-like protein C (Nicotiana tabacum, UniProt P93343)	bivalent over monovalent peptide, fluorescence polarization		together with: fluorescein-labelled ExoS peptide	relative to: monovalent peptide	affinity increase	20 fold
O=C(NC1CCCC1=O)C1CCC1 (stereo not drawn)	HTH-type quorum-sensing regulator RhlR (rhlR, Pseudomonas aeruginosa, UniProt P54292)	reporter gene, agonist, item: rhlI-gfp fluorescence	PAO-JP2 reporter			maximal activation	96%
CCN(Cc1ccccc1)C(=O)CCc1nc(CN2CCN(C(=O)Cc3ccc(OC)c(OC)c3)CC2)no1	Potassium voltage-gated channel subfamily KQT member 2 (KCNQ2, Homo sapiens, UniProt O43526)	potassium current, activator, whole-cell patch clamp	CHO, stable	20 µM	relative to: current before compound	current fold increase	2.08 ± 0.1
CC1=C(C)[C@H](Oc2c(F)cc3c(C)cc(=O)oc3c2F)OC1=O	RMS3	enzyme activity, substrate, pre-steady-state kinetics				kcat	0.00307 ± 0.000283 s⁻¹
CC(=O)N[C@@H](CC(C)C)C(=O)N[C@@H](CCC(=O)O)C(=O)N[C@@H](Cc1c[nH]cn1)C(=O)N[C@@H](CC(=O)O)C(=O)Nc1ccc2c(C)cc(=O)oc2c1	Caspase-4 (CASP4, Homo sapiens, UniProt P49662)	substrate cleavage, substrate, fluorogenic AMC release		enzyme 0.25 activity units/µL		Vmax	2820 ± 159 RFU/min
O=C(Nc1cccc(-c2nn[nH]n2)c1)c1cc(-c2ccccc2)cc(C(F)(F)F)c1	CTX-M-27 beta-lactamase	surface plasmon resonance				Kd/Ki difference	~4 fold
c1ccc(CN2CCOCCOCCN(CCCCCCCCN3CCOCCOCCN(CCCCCCCCN4CCOCCOCCN(Cc5ccccc5)CCOCCOCC4)CCOCCOCC3)CCOCCOCC2)cc1	Quinolone resistance protein NorA (Staphylococcus aureus, UniProt P0A0J7)	inhibitor	1199B	4 µM, 20 min		ethidium bromide accumulation	no effect
COC(=O)C1C(OC(c2ccc(Cl)cc2)c2ccc(Cl)cc2)CC2CCC1N2C (single isomer, unassigned)	rat 5-HT2 receptors	binding, radioligand displacement		inactive if below 75% at 10000 nM, together with: [3H]ketanserin		Ki	inactive
O=C(Nc1cccc(-c2nc3ncccc3o2)c1)c1cccc(F)c1	Nucleoside transporter 1 (Plasmodium vivax, UniProt A5K8B0, D23E)	adenosine uptake, inhibitor		D23E mutant	relative to: D23E mutant over wild type	IC50 ratio	~3.5 fold
O=C(O)COc1ccc(Cl)cc1	Chloride channel protein (Torpedo marmorata, UniProt P21564, C212S)	single-channel current, noise analysis		20 mM, -80 mV		higher corner frequency	920 Hz

SMILES	target	assay	test system	conditions	scale	quantity	result
Nc1nc2ncc(CNc3ccc(C(=O)N[C@@H](CCC(=O)NCCOCCOCCNC(=O)CN4CCN5CCN(CC4)CC(=O)[O][Al]([18F])[O]C(=O)C5)C(=O)O)cc3)nc2c(=O)[nH]1	Folate receptor alpha (FOLR1, Homo sapiens, UniProt P15328)	radioligand binding	CAL-51 xenograft homogenate	concentration not given, together with: self-block 5 µM	relative to: total binding	nondisplaceable binding	~11%
O=C(O)c1cccc(Nc2nc(-c3ccc(Cl)c(Cl)c3)cs2)c1	Capsid scaffolding protein, protease domain (Human herpesvirus 8 type P, UniProt Q2HRB6)	inhibitor				Vmax	decreased
O=C(C[P+]([Au-][Cl])(c1ccccc1)c1ccccc1)[O][Ti+2][O]C(=O)C[P+]([Au-][Cl])(c1ccccc1)c1ccccc1.c1cc[cH-]c1.c1cc[cH-]c1	PI3 kinases	inhibitor		up to 100 µM		PI3 kinase activity	inactive
COc1cc(COc2ccc3c(c2)CN(C(=O)[C@H](CCC(=O)O)NC(=O)[C@H](CC(=O)O)NC(=O)[C@H](CC(=O)O)NC(=O)[C@H](CCC(=O)O)NC(=O)[C@@H](CCCNC(=N)N)NC(=O)[C@@H](CCCNC(=N)N)NC(=O)[C@@H](CCCNC(=N)N)NC(=O)[C@H](C)N(C)C(=O)[C@H](Cc2ccccc2)NC(=O)[C@@H](NC(=O)[C@H](Cc2ccccc2)NC(=O)[C@H](C)NC(=O)[C@H](CCCNC(=N)N)N(C)C(=O)[C@@H]2CCCN2C(=O)[C@H](CCCNC(=N)N)NC(=O)CNC(=O)c2ccc4c(c2)C2(OC4=O)c4ccc(O)cc4Oc4cc(O)ccc42)[C@@H](C)OCc2cc(OC)c(OC)cc2[N+](=O)[O-])[C@H](C(=O)N[C@@H](CCC(=O)O)C(=O)N[C@@H](CCC(=O)O)C(=O)N[C@H](C(N)=O)C(C)C)C3)c([N+](=O)[O-])cc1OC	Epidermal growth factor receptor (EGFR, Homo sapiens, UniProt P00533)	reporter phosphorylation, substrate		concentration not given, 60 min, without photoactivation		phosphorylation	0%
O[C@@H]1[C@@H](O)[C@H](O)C[C@H]2N[C@@H]12	Exo-1,4-beta-xylosidase xlnD (xlnD, Emericella nidulans, UniProt Q5BAS1)	covalent inhibitor	Aspergillus nidulans	pH 4.5, ambient, together with: 4MU-β-D-xyloside		kinact	0.0837 s⁻¹
Cc1ccc(Nc2ncc3c(n2)N(C)C(=O)N(c2cc(NC(=O)c4cc(-n5cnc(C)c5)cc(C(F)(F)F)c4)ccc2C)C3)cn1	FGFR4/Transcription factor ETV6 (Homo sapiens, UniProt P22455+P41212, V550E)	cell proliferation	Ba/F3 TEL-FGFR4 V550E		relative to: compound over GNF-7	potency ratio	2 fold
CC(=O)NC(Cc1ccc(Br)c(Cl)c1)C(=O)N[C@@H](C)C(=O)N1CCC[C@H]1C(=O)N1CCC[C@H]1C(=O)N[C@@H](CCC(=O)O)C(=O)N[C@@H](Cc1c[nH]cn1)C(=O)N[C@@H](CO)C(=O)N[C@H](C(=O)N[C@@H](C)C(N)=O)[C@@H](C)OP(=O)(O)O (stereo partly drawn)	Mitogen-activated protein kinase 8 (MAPK8, Homo sapiens, UniProt P45983)	enzyme activity, inhibitor		10 µM		inhibition	0.32%
Nc1ncnc2c1ncn2[C@@H]1O[C@@H]2COP(=O)(O)O[C@H]3[C@@H](O)[C@H](n4cnc5cncnc54)O[C@@H]3COP(=O)(O)O[C@H]2[C@H]1O	gdpP residues 84-659	HPLC		concentration not given	relative to: c-di-AMP, higher = slower hydrolysis	hydrolysis rate fold decrease	3.8
NC(=NN=Cc1cccs1)[S][Ru+]([Cl])([P](c1ccccc1)(c1ccccc1)c1ccccc1)[P](c1ccccc1)(c1ccccc1)c1ccccc1.[Cl-]	Albumin (ALB, Bos taurus, UniProt P02769)	fluorescence quenching		together with: ibuprofen, site II marker		Stern-Volmer constant	1140 M⁻¹
O=C(CSc1nnc(-c2cccnc2)n1C1CC1)N1CCc2cc(Br)ccc21	Orco (Drosophila melanogaster, UniProt Q9VNB5)	calcium mobilization, agonist	HEK293 expressing Orco		relative to: VUAA1 maximum	efficacy	98%
CSCC[C@H](NC(=O)[C@H](CCCNC(=N)N)NC(=O)[C@H](CO)NC(=O)[C@@H](NC(=O)[C@H](CC(=O)O)NC(=O)[C@H](CC(=O)O)NC(=O)CCCCCNC(=O)c1ccc2c(c1)C(=O)OC21c2ccc(O)cc2Oc2cc(O)ccc21)[C@@H](C)O)C(=O)N[C@@H](CCC(=O)O)C(=O)N[C@@H](CCCCN)C(=O)N[C@H](C(=O)N[C@@H](CC(=O)O)C(=O)O)C(C)C	Peptidyl-prolyl cis-trans isomerase FKBP4 (FKBP4, Homo sapiens, UniProt Q02790)	binding, fluorescence polarization		pH 7.4, full-length protein	relative to: wild-type Hsp90α tracer	affinity decrease	≥ 3 fold
CN1CCN(C(=O)N[C@@H](Cc2ccccc2)C(=O)N[C@H](/C=C/S(=O)(=O)c2ccccc2)CCc2ccccc2)CC1	Procathepsin L (CTSL, Homo sapiens, UniProt P07711)	inactivator		pH 5.5, 25 °C		kinact	0.013 ± 0.002 s⁻¹
CCC(NC(=O)C(CC(C)C)NC(=O)NCc1ccccc1)C(=O)C(=O)NCc1cc(OC)cc(OC)c1 (stereo not drawn)	Calpain-2 catalytic subunit (Capn2, Mus musculus, UniProt O08529)	brain enzyme activity	mouse, controlled cortical impact TBI, brain	intraperitoneal, 24 h after TBI		ED50	0.11 mg/kg
CC(C)P(=[Se])(NP(=[Se])(C(C)C)C(C)C)C(C)C	Alpha-amylase (Bacillus subtilis, UniProt P00691)	fluorescence quenching		concentration not given, pH 6.8, 298 K		ΔG of binding	-2.94 kcal/mol
CC[C@H](C)[C@H](NC(=O)[C@H](CC(=O)O)NC(C)=O)C(=O)N[C@H](C(=O)N[C@H](C(=O)N[C@@H](CCCNC(=N)N)C(=O)N[C@@H](Cc1ccc(O)cc1)C(=O)N[C@@H](CC(N)=O)C(=O)NCC(=O)N[C@@H](CCCCN)C(=O)N[C@H](C(=O)N[C@@H](Cc1c[nH]c2ccccc12)C(=O)N[C@@H](Cc1c[nH]c2ccccc12)C(=O)N[C@@H](CCCNC(=N)N)C(=O)O)C(C)C)[C@@H](C)O)[C@@H](C)O	Insulin (INS, Bos taurus, UniProt P01317)	isothermal titration calorimetry		pH 2.6, 25 °C		Ka, site 3	41600 M⁻¹
O=C(NCc1ccccc1Cn1cncn1)c1cn(Cc2ccccc2)c2ccccc12	Histone acetyltransferase KAT5 (KAT5, Homo sapiens, UniProt Q92993)	activator		20 µM		histone acetyltransferase activity	increased

A few entries again:
SMILES	target	assay	test system	conditions	scale	quantity	result
NC(=NN=Cc1cccs1)[S][Ru+]([Cl])([P](c1ccccc1)(c1ccccc1)c1ccccc1)[P](c1ccccc1)(c1ccccc1)c1ccccc1.[Cl-]	Albumin (ALB, Bos taurus, UniProt P02769)	fluorescence quenching		together with: ibuprofen, site II marker		Stern-Volmer constant	1140 M⁻¹
O=C(CSc1nnc(-c2cccnc2)n1C1CC1)N1CCc2cc(Br)ccc21	Orco (Drosophila melanogaster, UniProt Q9VNB5)	calcium mobilization, agonist	HEK293 expressing Orco		relative to: VUAA1 maximum	efficacy	98%
CSCC[C@H](NC(=O)[C@H](CCCNC(=N)N)NC(=O)[C@H](CO)NC(=O)[C@@H](NC(=O)[C@H](CC(=O)O)NC(=O)[C@H](CC(=O)O)NC(=O)CCCCCNC(=O)c1ccc2c(c1)C(=O)OC21c2ccc(O)cc2Oc2cc(O)ccc21)[C@@H](C)O)C(=O)N[C@@H](CCC(=O)O)C(=O)N[C@@H](CCCCN)C(=O)N[C@H](C(=O)N[C@@H](CC(=O)O)C(=O)O)C(C)C	Peptidyl-prolyl cis-trans isomerase FKBP4 (FKBP4, Homo sapiens, UniProt Q02790)	binding, fluorescence polarization		pH 7.4, full-length protein	relative to: wild-type Hsp90α tracer	affinity decrease	≥ 3 fold
